# Published values gathered from unrelated publications.
# Each line is one published result; not all experiments were run side by side. Numbers after ± are the reported error.
Structure (SMILES),assay,test system,setting,IC50
CC[C@H](C)[C@H](NC(C)=O)C(=O)N[C@H]1CSCC[C@@H](C(=O)N(C)[C@H](C(N)=O)[C@@H](C)CC)NC(=O)[C@H](CCCNC(=N)N)NC(=O)[C@H](Cc2c[nH]cn2)NC(=O)[C@H](C)NC(=O)CN(C)C(=O)[C@H](Cc2c[nH]c3ccccc23)NC(=O)[C@H](CC(=O)O)NC(=O)[C@H](CCC(N)=O)NC(=O)[C@H](Cc2cn(C)c3ccccc23)NC(=O)[C@H](C(C)C)NC1=O,"classical complement activation, inhibitor, C3b deposition ELISA",normal human plasma,"15 min, plasma 1:80",0.27 ± 0.08 µM
CCCCSc1nnc(-c2ccccc2Cl)o1,H2O2 scavenging,,,61.9 ± 1.3 µM
CCCCn1cc(C(=O)O)c(=O)c2cc(F)c(Nc3ccccc3OC)c(N)c21,DPPH radical scavenging,,30 min,15.1 ± 1.21 µg/mL
COc1ccc(C2NC(=O)NC(C)=C2C(C)=O)cc1 (stereo not drawn),nitric oxide scavenging,,,96.4 µM
O=C(CCc1ccc(CNC(C(=O)OC2CCCC2)C2CCCCC2)cn1)NO (stereo not drawn),refers to: TNF-alpha,human whole blood,"overnight, with: LPS 200 ng/mL",0.174 µM
COc1ccc(-c2c(O)oc3c(CC=C(C)C)c(O)cc(O)c3c2=O)cc1,"oxidative burst, luminol chemiluminescence",human whole blood,with: zymosan,> 100 µg/mL
CCCCn1cc(C(=O)O)c(=O)c2cc(F)c(Nc3ccc(OC)cc3)c(N)c21,DPPH radical scavenging,,30 min,111 ± 11.5 µg/mL
O=c1c(O)c(-c2ccc(O)cc2)oc2cc(O)cc(O)c12,DPPH radical scavenging,methanol,"30 min, with: DPPH 50 µM",13 µM
CC(=O)C1=C(C)NC(=O)NC1c1cccc(C)c1 (stereo not drawn),nitric oxide scavenging,,,203 µM
CC(=O)c1cnc(N)nc1N1CC[C@H]1c1nn2ccc(Cl)c2c(=O)n1-c1ccccc1,"Th17 differentiation, refers to: IL-17A",rheumatoid arthritis patient whole blood,,0.088 µM
CC(=O)C1=C(C)NC(=O)NC1c1ccccc1 (stereo not drawn),"ferric reducing power, FRAP",,,78.8 µM
CCCCSc1nnc(-c2ccccc2)o1,"superoxide scavenging, pyrogallol",,,164 ± 3.4 µM
CCCCn1cc(C(=O)O)c(=O)c2cc(F)c(Nc3ccc(OC)cc3OC)c(N)c21,DPPH radical scavenging,,30 min,108 ± 12.4 µg/mL
CC(=O)C1=C(C)NC(=O)NC1c1ccc(F)cc1 (stereo not drawn),"ferric reducing power, FRAP",,,201 µM
Sc1nnc(-c2ccccc2Cl)o1,"superoxide scavenging, pyrogallol",,,142 ± 1.1 µM
C#CCCCC(=O)NCC(=O)NCC(=O)NCC(=O)N1CCC[C@H]1C(=O)N[C@@H](CCCCN)C(=O)N[C@@H](CCCCN)C(=O)N[C@@H](CCCCN)C(=O)N[C@@H](CCCNC(=N)N)C(=O)N[C@@H](CCCCN)C(=O)N[C@H](C(=O)NCC(=O)NCC(N)=O)C(C)C,"translation, luciferase reporter",rabbit reticulocyte lysate,,> 250 µM
CCCCn1cc(C(=O)O)c(=O)c2cc(F)c(Nc3cccc(OC)c3)c([N+](=O)[O-])c21,DPPH radical scavenging,,30 min,1750 ± 174 µg/mL
CCCCCCCCCCCCCCCCCCCCCCCCCCCCCCOC(=O)/C=C/c1ccc(O)cc1,"oxidative burst, luminol chemiluminescence",human whole blood,with: zymosan,> 100 µg/mL
CCCCSc1nnc(-c2ccc(C(C)(C)C)cc2)o1,"superoxide scavenging, pyrogallol",,,108 ± 3.3 µM
CC(=O)C1=C(C)NC(=O)NC1c1ccc([N+](=O)[O-])cc1 (stereo not drawn),"ferric reducing power, FRAP",,,283 µM
Nc1ccc(-c2nnc(S)o2)cc1,H2O2 scavenging,,,47.7 ± 3.3 µM
CC(=O)[O-].[Cu+2].[O-]c1ccc(Br)cc1C=NCCN1CCOCC1,hydroxyl radical scavenging,,,240 µM
Sc1nnc(-c2cc(Cl)ccc2Cl)o1,H2O2 scavenging,,,107 ± 1.1 µM
CC1OC(OC2C(c3c(O)cc(O)c4c(=O)cc(-c5ccc(O)cc5)oc34)OC(CO)C(O)C2O)C(O)C(O)C1O (stereo not drawn),AGE formation,BSA-methylglyoxal model,,42.1 ± 3.75 µM
CCCC[C@H](NC(=O)[C@@H]1CSSC[C@H](NC(=O)[C@@H](NC(C)=O)[C@@H](C)CC)C(=O)N[C@@H](C(C)C)C(=O)N[C@@H](Cc2cn(C)c3ccccc23)C(=O)N[C@@H](CCC(N)=O)C(=O)N[C@@H](CC(=O)O)C(=O)N[C@@H](Cc2c[nH]c3ccccc23)C(=O)N(C)CC(=O)N[C@@H](C)C(=O)N[C@@H](Cc2c[nH]cn2)C(=O)N[C@@H](CCCNC(=N)N)C(=O)N1)C(N)=O,"complement activation, ELISA, refers to: C3 fragment deposition",human serum,classical pathway,0.109 µM
C#CCNC(=O)CNC(=O)CNC(=O)[C@H](Cc1ccc(O)cc1)NC(=O)[C@H](Cc1c[nH]cn1)NC(=O)[C@H](Cc1ccccc1)NC(=O)[C@H](Cc1c[nH]cn1)NC(=O)[C@H](CC(C)C)NC(=O)[C@H](Cc1c[nH]cn1)NC(=O)[C@H](Cc1ccccc1)NC(=O)[C@@H](N)Cc1ccccc1,"translation, luciferase reporter",rabbit reticulocyte lysate,,205 µM
CC(=O)C1=C(C)NC(=O)NC1c1ccc(F)cc1F (stereo not drawn),nitric oxide scavenging,,,140 µM
CC(C)CCCC(C)C1CCC2C3CC=C4CC(OC(=O)CCC(=O)NCCCCCCNc5ncnc6c5ncn6[C@@H]5O[C@H](COP(=O)(O)OP(=O)([O-])OP(=O)(O)OC[C@H]6O[C@@H](n7c[n+](C)c8c(O)nc(N)nc87)[C@H](O)[C@@H]6O)[C@@H](O)[C@H]5O)CCC4(C)C3CCC12C (stereo partly drawn),cap-dependent translation,rabbit reticulocyte lysate,"1 h preincubation, with: capped luciferase mRNA",12.6 ± 2.1 µM
CCCCSc1nnc(-c2cc(Cl)ccc2Cl)o1,"superoxide scavenging, pyrogallol",,,84.9 ± 2.2 µM
C#CCNC(=O)CNC(=O)CNC(=O)[C@@H]1CCCN1C(=O)[C@H](CC(=O)O)NC(=O)CNC(=O)[C@H](CCCNC(=N)N)NC(=O)[C@H](CC(=O)O)NC(=O)CNC(=O)[C@H](CCCNC(=N)N)NC(=O)[C@H](CC(=O)O)NC(=O)CNC(=O)[C@H](CCCNC(=N)N)NC(=O)[C@H](CC(=O)O)NC(=O)CNC(=O)[C@@H](N)CCCNC(=N)N,"translation, luciferase reporter",rabbit reticulocyte lysate,,> 250 µM
CC(C)CCCC(C)C1CCC2C3CC=C4CC(OC(=O)CCC(=O)NCCCCCCNC(=O)O[C@H]5[C@@H](O)[C@H](n6cnc7c(=O)[nH]c(N)nc76)O[C@@H]5COP(=O)(O)OP(=O)(O)OP(=O)([S-])OC[C@H]5O[C@@H](n6c[n+](C)c7c(O)nc(N)nc76)[C@H](O)[C@@H]5O)CCC4(C)C3CCC12C (mixture of isomers),cap-dependent translation,rabbit reticulocyte lysate,"1 h preincubation, with: capped luciferase mRNA",20.5 ± 5.7 µM
CCCCCC(O)C=CC1C2CC(CO2)C1CC=CCCCC(=O)O (stereo not drawn),"vasoconstriction, pressure myography",mouse third-order mesenteric arteries,,0.00631 µM
CC(=O)C1=C(C)NC(=O)NC1c1cccc(Cl)c1 (stereo not drawn),nitric oxide scavenging,,,283 µM
COc1ccc(NC(=O)[C@H](CCCCN)NC(=O)c2cc(NC(=O)[C@H](CCCCN)NC(=O)c3cc(NC(=O)[C@H](CCCCN)NC(=O)c4cc(NC(=O)[C@@H](N)CCCCN)ccc4OC)ccc3OC)ccc2OC)cc1C(N)=O,"heparin reversal, aPTT",human citrated plasma,with: unfractionated heparin 0.5 U/mL,1.1 µM
CC(=O)C1=C(C)NC(=O)NC1c1ccc(Br)cc1 (stereo not drawn),"ferric reducing power, FRAP",,,262 µM
NS(=O)(=O)c1ccc(/N=N/c2ccc(O)c(/C=N/CCc3c[nH]c4ccccc34)c2)cc1,DPPH radical scavenging,,60 min,13.1 ± 0.86 µM
CCCCSc1nnc(-c2cc([N+](=O)[O-])ccc2Cl)o1,"superoxide scavenging, pyrogallol",,,45.5 ± 1.2 µM
NS(=O)(=O)c1ccc(/N=N/c2ccc(O)c(/C=N/c3nccs3)c2)cc1,DPPH radical scavenging,,60 min,16.4 ± 0.33 µM
C#CCNC(=O)CNC(=O)CNC(=O)CNC(=O)[C@@H]1CCCN1C(=O)[C@H](CCCCN)NC(=O)[C@H](CCCCN)NC(=O)[C@H](CCCCN)NC(=O)[C@H](CCCNC(=N)N)NC(=O)[C@H](CCCCN)NC(=O)[C@@H](NC(=O)CNC(=O)CN)C(C)C,"translation, luciferase reporter",Escherichia coli S30 extract,,> 250 µM
